Published values from different studies.
Numbered parts are unrelated; each lists some results of a single study. Changes are numbered by the printed parent chain.

Block 1 — method: DHFR PCA, deep sequencing; medium: yeast; together with: (+)-ABA 1.4 µM; reference: wild-type fitted maximum; reading: higher = stronger binding
Target: ABI1, truncated, D143A, DHFR fusion (Arabidopsis thaliana)
Notes: methotrexate growth selection, single substitutions
Starting sequence: PYL1, truncated, DHFR fusion (Arabidopsis thaliana); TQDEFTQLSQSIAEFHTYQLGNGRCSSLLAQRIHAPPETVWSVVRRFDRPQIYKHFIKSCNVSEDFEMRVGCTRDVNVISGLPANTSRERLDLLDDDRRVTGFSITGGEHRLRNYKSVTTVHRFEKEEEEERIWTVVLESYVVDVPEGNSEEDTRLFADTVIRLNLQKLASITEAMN
Change | relative binding score
A84C | 25.8%
R90S | 2.86%
R69I | 49.3%
S11T | 54.3%
D97H | 47.6%
I172S | -3.91%
N177L | 39%
S42V | 1.76%

Block 2 — method: RNA Bind-n-Seq; molecule type: RNA; medium: in vitro; concentration: 100 nM; reference: input RNA pool; reading: higher = stronger binding
Target: RING finger protein unkempt homolog, zinc fingers 1-6, SBP tag (UNK, Homo sapiens, UniProt Q9C0B0, residues 30-357)
Chain of UniProt Q9C0B0 (30-357, looked up): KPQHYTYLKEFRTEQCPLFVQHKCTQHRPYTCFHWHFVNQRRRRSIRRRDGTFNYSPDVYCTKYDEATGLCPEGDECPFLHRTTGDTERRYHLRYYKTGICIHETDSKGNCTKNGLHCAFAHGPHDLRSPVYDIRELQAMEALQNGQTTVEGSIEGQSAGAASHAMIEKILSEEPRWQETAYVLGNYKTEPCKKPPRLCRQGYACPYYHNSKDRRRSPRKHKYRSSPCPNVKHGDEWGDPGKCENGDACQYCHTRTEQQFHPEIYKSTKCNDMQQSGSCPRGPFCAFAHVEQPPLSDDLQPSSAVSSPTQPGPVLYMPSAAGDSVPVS
Notes: RNA with constant flanks, vertebrate orthologous sites, ends assumed
Oligonucleotide | bound/input enrichment
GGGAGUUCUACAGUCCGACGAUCGAUUUGGACCUUGGAGCUGAACCAGGGAGCUAGCAAAAGUAAAGCAGACUUGUAAAAUUAUAGCCAUAUGCAGCUGCACAACAACAGUACUACCACUAGCAGCUGUGUUAAAGUAUUUAUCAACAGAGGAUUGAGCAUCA | 0.686 ratio
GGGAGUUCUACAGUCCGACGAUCUGCAUUAUUUGACCAGAGUGGAAGUGACAGAGUUUGAAGAUAUUAAAUCAGGUUACAGAAUAGAUUUUUAUUUUGAUGAAAAUCCUUACUUCGAAAAUAAAGUUCUCUCCAAAGAGUUUCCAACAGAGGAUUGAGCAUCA | 0.332 ratio
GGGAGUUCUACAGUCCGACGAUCCCGCCGAUUCACUCAUCGGGAGAGCGGCACACAUAGCUGUUCUGGAUUCGGAAAUAUUUUUAGAGAAAUUCUUUCUGGUUGCUGCCCUCAAAUAUUUCCAGUAGAAUAAAAGCAUUGUUACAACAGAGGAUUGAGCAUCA | 0.416 ratio
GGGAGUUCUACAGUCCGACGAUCACCCCCCACUCCCUGUAAGAGGGAAUGGGGGAAGCCUGAUGACCCUCAGCUGUUCCAAUCUAGUAUUUUUUUUUUCUUUUUUAAAAUUACUCUAUUUAUUAUGACGAUGGUGACUCCCCACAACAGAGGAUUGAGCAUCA | 3.37 ratio
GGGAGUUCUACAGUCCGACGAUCGGGUGGCGGGUGGGGGAAUCCCAUGCCCUGGCCUUGCCUCCCCUCCCUGCCACUCGCUCCUAGUUAUUAUUUUUUUUUUUAACCACCAUGUGAUUAAGGUCGGCGCUGCCUCACCCGACCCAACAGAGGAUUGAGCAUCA | 5.63 ratio
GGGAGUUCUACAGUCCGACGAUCCGUUUCCUUUUUGUAGGUACCAUUGCCCAAUGCCCAAGAUUUUUUAUGUGCAGUUGACUGUAGGAAAUAAUGAAUUCUUCGGUGAAGGGAAGACUCGCCAAGCUGCCAGACACAAUGCUGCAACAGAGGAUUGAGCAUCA | 0.585 ratio
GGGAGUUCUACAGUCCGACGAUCUAUUGAAUAGUAUUAAACAUUUUUGUCUUCCUUUACCUUUUAUCCCCUUUACCUAAUACUUAGUCUACUUUUUUAAAUUUCAGACUUCACUGCUCUUUGAAUUGAUAAUUCCAGUUUUCACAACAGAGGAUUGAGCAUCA | 4.41 ratio
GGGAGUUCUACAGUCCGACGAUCUUUUAUUGAUCAGGUCUGUAAAUGUGUACUAAAAAAAUCAGAAUUUAUUUAUAAACAGAAUAGUUUAUUUAAAGAGAAGGUCUUUUCCUUAUUGAUAUCAUGGUAUGCAUUAAUUCCAUUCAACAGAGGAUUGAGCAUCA | 0.175 ratio

Further values, each from its own experiment
P1: PafA, mature enzyme, eGFP fusion (Elizabethkingia meningoseptica, UniProt Q9KJX5); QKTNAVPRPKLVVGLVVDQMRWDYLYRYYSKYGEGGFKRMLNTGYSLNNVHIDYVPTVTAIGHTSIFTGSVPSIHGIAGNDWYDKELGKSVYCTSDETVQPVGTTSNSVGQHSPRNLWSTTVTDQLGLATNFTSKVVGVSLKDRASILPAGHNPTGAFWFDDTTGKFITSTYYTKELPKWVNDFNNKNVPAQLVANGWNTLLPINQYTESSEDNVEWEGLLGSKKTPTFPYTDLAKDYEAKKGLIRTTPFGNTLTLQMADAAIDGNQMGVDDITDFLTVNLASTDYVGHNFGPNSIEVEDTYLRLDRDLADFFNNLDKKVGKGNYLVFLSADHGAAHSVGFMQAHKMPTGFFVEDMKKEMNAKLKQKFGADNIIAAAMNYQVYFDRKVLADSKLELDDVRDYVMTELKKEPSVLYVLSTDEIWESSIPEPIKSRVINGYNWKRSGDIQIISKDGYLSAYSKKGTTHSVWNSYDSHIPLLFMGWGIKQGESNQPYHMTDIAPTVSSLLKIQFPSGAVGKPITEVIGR
P2: viral docking peptide; TSVRRALFTGGSD; partner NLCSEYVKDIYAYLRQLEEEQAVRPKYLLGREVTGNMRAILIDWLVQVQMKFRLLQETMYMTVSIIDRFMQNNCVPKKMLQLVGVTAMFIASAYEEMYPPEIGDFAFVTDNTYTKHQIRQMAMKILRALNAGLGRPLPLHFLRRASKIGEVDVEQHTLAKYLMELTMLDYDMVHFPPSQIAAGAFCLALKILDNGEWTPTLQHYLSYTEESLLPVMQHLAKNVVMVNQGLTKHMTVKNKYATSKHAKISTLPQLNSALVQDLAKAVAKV
Change | target | assay | test system | conditions | how to read | endpoint | value
P1 A129V | tungstate, free oxyanion | microfluidic competitive inhibition | in vitro, cell-free expressed | not given, derived from inhibition constants, unchanged parent 2230 nM | lower = stronger binding | oxyanion analog dissociation constant | 2.05 µM
P2 T9Y | CCNB1, cyclin fold, Cln2 fusion (human) | yeast growth competition, sequencing | yeast | strong parent motif | reference: not given, higher = stronger binding | normalised enrichment score | 1.82

A few entries again (block 1):
Change | relative binding score
R69I | 49.3%
